Assay results pooled from the literature.
Lines come from different studies, so protocols differ.
U2AF2: U2AF2 148-342 (Homo sapiens, UniProt P26368)
UniProt P26368, sequence (whole entry, looked up): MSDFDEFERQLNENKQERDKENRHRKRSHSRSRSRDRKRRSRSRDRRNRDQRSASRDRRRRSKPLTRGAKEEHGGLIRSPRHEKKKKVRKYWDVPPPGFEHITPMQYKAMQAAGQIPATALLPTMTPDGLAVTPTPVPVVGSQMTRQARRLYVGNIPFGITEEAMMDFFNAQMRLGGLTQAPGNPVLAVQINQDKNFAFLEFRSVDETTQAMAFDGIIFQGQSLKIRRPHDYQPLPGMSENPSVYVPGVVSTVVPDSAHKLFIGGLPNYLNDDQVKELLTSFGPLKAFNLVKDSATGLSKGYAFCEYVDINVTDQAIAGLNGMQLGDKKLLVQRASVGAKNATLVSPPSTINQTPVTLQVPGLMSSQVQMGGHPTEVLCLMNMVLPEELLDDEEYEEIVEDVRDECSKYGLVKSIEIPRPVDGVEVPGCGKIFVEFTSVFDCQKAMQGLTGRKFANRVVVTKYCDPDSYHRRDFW
B1: XPR1 Y22A/E23A/K26A (Homo sapiens, UniProt Q9UBH6); sequence looked up; chain MKFAEHLSAHITPEWRKQYIQAAAFADMLYSAQDQAPSVEVTDEDTVKRYFAKFEEKFFQTCEKELAKINTFYSEKLAEAQRRFATLQNELQSSLDAQKESTGVTTLRQRRKPVFHLSHEERVQHRNIKDLKLAFSEFYLSLILLQNYQNLNFTGFRKILKKHDKILETSRGADWRVAHVEVAPFYTCKKINQLISETEAVVTNELEDGDRQKAMKRLRVPPLGAAQPAPAWTTFRVGLFCGIFIVLNITLVLAAVFKLETDRSIWPLIRIYRGGFLLIEFLFLLGINTYGWRQAGVNHVLIFELNPRSNLSHQHLFEIAGFLGILWCLSLLACFFAPISVIPTYVYPLALYGFMVFFLINPTKTFYYKSRFWLLKLLFRVFTAPFHKVGFADFWLADQLNSLSVILMDLEYMICFYSLELKWDESKGLLPNNSEESGICHKYTYGVRAIVQCIPAWLRFIQCLRRYRDTKRAFPHLVNAGKYSTTFFMVTFAALYSTHKERGHSDTMVFFYLWIVFYIISSCYTLIWDLKMDWGLFDKNAGENTFLREEIVYPQKAYYYCAIIEDVILRFAWTIQISITSTTLLPHSGDIIATVFAPLEVFRRFVWNFFRLENEHLNNCGEFRAVRDISVAPLNADDQTLLEQMMDQDDGVRNRQKNRSWKYNQSISLRRPRLASQSKARDTKVLIEDTDDEANT
B2: clcA 1-465 C85A/L406A/I409A/I410A/L413A (Escherichia coli, UniProt P37019); chain MKTDTPSLETPQAARLRRRQLIRQLLERDKTPLAILFMAAVVGTLVGLAAVAFDKGVAWLQNQRMGALVHTADNYPLLLTVAFLASAVLAMFGYFLVRKYAPEAGGSGIPEIEGALEDQRPVRWWRVLPVKFFGGLGTLGGGMVLGREGPTVQIGGNIGRMVLDIFRLKGDEARHTLLATGAAAGLAAAFNAPLAGILFIIEEMRPQFRYTLISIKAVFIGVIMSTIMYRIFNHEVALIDVGKLSDAPLNTLWLYLILGIIFGIFGPIFNKWVLGMQDLLHRVHGGNITKWVLMGGAIGGLCGLLGFVAPATSGGGFNLIPIATAGNFSMGMLVFIFVARVITTLLCFSSGAPGGIFAPMLALGTVLGTAFGMVAVELFPQYHLEAGTFAIAGMGALLAASIRAPATGAALVAEMTDNYQLILPMIITGLGATLLAQFTGGKPLYSAILARTLAKQEAEQLARSK
B3: SPOP R221C (Homo sapiens, UniProt O43791); sequence looked up; chain MSRVPSPPPPAEMSSGPVAESWCYTQIKVVKFSYMWTINNFSFCREEMGEVIKSSTFSSGANDKLKWCLRVNPKGLDEESKDYLSLYLLLVSCPKSEVRAKFKFSILNAKGEETKAMESQRAYRFVQGKDWGFKKFIRRDFLLDEANGLLPDDKLTLFCEVSVVQDSVNISGQNTMNMVKVPECRLADELGGLWENSRFTDCCLCVAGQEFQAHKAILAACSPVFSAMFEHEMEESKKNRVEINDVEPEVFKEMMCFIYTGKAPNLDKMADDLLAAADKYALERLKVMCEDALCSNLSVENAAEILILADLHSADQLKTQAVDFINYHASDVLETSGWKSMVVSHPHLVAEAYRSLASAQCPFLGPPRKRLKQS
B4: PHYA 1-876 F745E (Arabidopsis thaliana, UniProt P14712); phytochromobilin thioether linked; chain GMSGSRPTQSSEGSRRSRHSARIIAQTTVDAKLHADFEESGSSFDYSTSVRVTGPVVENQPPRSDKVTTTYLHHIQKGKLIQPFGCLLALDEKTFKVIAYSENASELLTMASHAVPSVGEHPVLGIGTDIRSLFTAPSASALQKALGFGDVSLLNPILVHCRTSAKPFYAIIHRVTGSIIIDFEPVKPYEVPMTAAGALQSYKLAAKAITRLQSLPSGSMERLCDTMVQEVFELTGYDRVMAYKFHEDDHGEVVSEVTKPGLEPYLGLHYPATDIPQAARFLFMKNKVRMIVDCNAKHARVLQDEKLSFDLTLCGSTLRAPHSCHLQYMANMDSIASLVMAVVVNEEDGEGDAPDATTQPQKRKRLWGLVVCHNTTPRFVPFPLRYACEFLAQVFAIHVNKEVELDNQMVEKNILRTQTLLCDMLMRDAPLGIVSQSPNIMDLVKCDGAALLYKDKIWKLGTTPSEFHLQEIASWLCEYHMDSTGLSTDSLHDAGFPRALSLGDSVCGMAAVRISSKDMIFWFRSHTAGEVRWGGAKHDPDDRDDARRMHPRSSFKAFLEVVKTRSLPWKDYEMDAIHSLQLILRNAFKDSETTDVNTKVIYSKLNDLKIDGIQELEAVTSEMVRLIETATVPILAVDSDGLVNGWNTKIAELTGLSVDEAIGKHFLTLVEDSSVEIVKRMLENALEGTEEQNVQFEIKTHLSRADAGPISLVVNACASRDLHENVVGVCFVAHDLTGQKTVMDKETRIEGDYKAIIQNPNPLIPPIFGTDEFGWCTEWNPAMSKLTGLKREEVIDKMLLGEVFGTQKSCCRLKNQEAFVNLGIVLNNAVTSQDPEKVSFAFFTRGGKYVECLLCVSKKLDREGVVTGVFCFLQLAS
B5: TARDBP 262-414 (Homo sapiens, UniProt Q13148); chain PKHNSNRQLERSGRFGGNPGGFGNQGGFGNSRGGGAGLGNNQGSNMGGGMNFGAFSINPAMMAAAQAALQSSWGMMGMLASQQNQSGPSGNNQNQGNMQREPNQAFGSGNNSYSGSNSGAAIGWGSASNAGSGSGFNGGFGSSMDSKSSGWGM
B6: SPOP W131L (Homo sapiens, UniProt O43791); sequence looked up; chain MSRVPSPPPPAEMSSGPVAESWCYTQIKVVKFSYMWTINNFSFCREEMGEVIKSSTFSSGANDKLKWCLRVNPKGLDEESKDYLSLYLLLVSCPKSEVRAKFKFSILNAKGEETKAMESQRAYRFVQGKDLGFKKFIRRDFLLDEANGLLPDDKLTLFCEVSVVQDSVNISGQNTMNMVKVPECRLADELGGLWENSRFTDCCLCVAGQEFQAHKAILAARSPVFSAMFEHEMEESKKNRVEINDVEPEVFKEMMCFIYTGKAPNLDKMADDLLAAADKYALERLKVMCEDALCSNLSVENAAEILILADLHSADQLKTQAVDFINYHASDVLETSGWKSMVVSHPHLVAEAYRSLASAQCPFLGPPRKRLKQS
B7: halB 36-127 (Haloferax volcanii, UniProt D4GX31); sequence looked up; chain GGAVVVDEGETVDGDLDAVGGTVVVAGTVTGDVSATAGTVLVTETGVVNGNLDAVAGSATLEGSVGGSLAYDAATATVDAAAVVDGGVRQVD
B8: ph-p SAM 1397-1577 D16K/D17R (Drosophila melanogaster, UniProt P39769); sequence looked up; chain GVGSGETNGLGTGGIVGVDAMALVDRLDEAMAEEKMQTEATPKLSESFPILGASTEVPPMSLPVQAAISAPSPLAMPLGSPLSVALPTLAPLSVVTSGAAPKSSEVNGTDRPPISSWSVKRVSNFIRELPGCQDYVDDFIQQEIDGQALLLLKEKHLVNAMGMKLGPALKIVAKVESIKEV
B9: TAF15 7-99 del82-96 (Homo sapiens, UniProt Q92804); sequence looked up; chain YGQSGGEQQSYSTYGNPGSQGYGQASQSYSGYGQTTDSSYGQNYSGYSSYGQSQSGYSQSYGGYENQKQSSYSQQSQG
B10: CRYAB (Homo sapiens, UniProt P02511); chain MDIAIHHPWIRRPFFPFHSPSRLFDQFFGEHLLESDLFPTSTSLSPFYLRPPSFLRAPSWFDTGLSEMRLEKDRFSVNLDVKHFSPEELKVKVLGDVIEVHGKHEERQDEHGFISREFHRKYRIPADVDPLTITSSLSSDGVLTVNGPRKQVSGPERTIPITREEKPAVTAAPKK
B11: cooS 1-639 (Rhodospirillum rubrum, UniProt P31896); chain MTHHDCAHCSSDACATEMLNLAEANSIETAWHRYEKQQPQCGFGSAGLCCRICLKGPCRIDPFGEGPKYGVCGADRDTIVARHLVRMIAAGTAAHSEHGRHIALAMQHISQGELHDYSIRDEAKLYAIAKTLGVATEGRGLLAIVGDLAAITLGDFQNQDYDKPCAWLAASLTPRRVKRLGDLGLLPHNIDASVAQTMSRTHVGCDADPTNLILGGLRVAMADLDGSMLATELSDALFGTPQPVVSAANLGVMKRGAVNIAVNGHNPMLSDIICDVAADLRDEAIAAGAAEGINIIGICCTGHEVMMRHGVPLATNYLSQELPILTGALEAMVVDVQCIMPSLPRIAECFHTQIITTDKHNKISGATHVPFDEHKAVETAKTIIRMAIAAFGRRDPNRVAIPAFKQKSIVGFSAEAVVAALAKVNADDPLKPLVDNVVNGNIQGIVLFVGCNTTKVQQDSAYVDLAKSLAKRNVLVLATGCAAGAFAKAGLMTSEATTQYAGEGLKGVLSAIGTAAGLGGPLPLVMHMGSCVDNSRAVALATALANKLGVDLSDLPLVASAPECMSEKALAIGSWAVTIGLPTHVGSVPPVIGSQIVTKLVTETAKDLVGGYFIVDTDPKSAGDKLYAAIQERRAGLGL
B12: human alpha-actinin-3; sequence looked up; chain MMMVMQPEGLGAGEGRFAGGGGGGEYMEQEEDWDRDLLLDPAWEKQQRKTFTAWCNSHLRKAGTQIENIEEDFRNGLKLMLLLEVISGERLPRPDKGKMRFHKIANVNKALDFIASKGVKLVSIGAEEIVDGNLKMTLGMIWTIILRFAIQDISVEETSAKEGLLLWCQRKTAPYRNVNVQNFHTSWKDGLALCALIHRHRPDLIDYAKLRKDDPIGNLNTAFEVAEKYLDIPKMLDAEDIVNTPKPDEKAIMTYVSCFYHAFAGAEQAETAANRICKVLAVNQENEKLMEEYEKLASELLEWIRRTVPWLENRVGEPSMSAMQRKLEDFRDYRRLHKPPRIQEKCQLEINFNTLQTKLRLSHRPAFMPSEGKLVSDIANAWRGLEQVEKGYEDWLLSEIRRLQRLQHLAEKFRQKASLHEAWTRGKEEMLSQRDYDSALLQEVRALLRRHEAFESDLAAHQDRVEHIAALAQELNELDYHEAASVNSRCQAICDQWDNLGTLTQKRRDALERMEKLLETIDRLQLEFARRAAPFNNWLDGAVEDLQDVWLVHSVEETQSLLTAHDQFKATLPEADRERGAIMGIQGEIQKICQTYGLRPCSTNPYITLSPQDINTKWDMVRKLVPSCDQTLQEELARQQVNERLRRQFAAQANAIGPWIQAKVEEVGRLAAGLAGSLEEQMAGLRQQEQNIINYKTNIDRLEGDHQLLQESLVFDNKHTVYSMEHIRVGWEQLLTSIARTINEVENQVLTRDAKGLSQEQLNEFRASFNHFDRKQNGMMEPDDFRACLISMGYDLGEVEFARIMTMVDPNAAGVVTFQAFIDFMTRETAETDTTEQVVASFKILAGDKNYITPEELRRELPAKQAEYCIRRMVPYKGSGAPAGALDYVAFSSALYGESDL

KBTBD2 S252D (Homo sapiens) (sequence not shown)
binding (itself; cryo-EM): binds

B1 (XPR1 Y22A/E23A/K26A)
binding (itself; cryo-EM): binds

IMPDH1 S477D (Homo sapiens) (sequence not shown)
binding (itself; negative stain electron microscopy): binds

B2
binding (itself; SEC): binds

B3 (SPOP R221C)
binding (itself; negative-stain TEM): binds

B4 (PHYA 1-876 F745E)
binding (itself; SEC): binds

B5 (TARDBP 262-414)
binding (itself; cross-linking): binds

CACUUGAGU (ssRNA)
Kd (U2AF2; sequencing of bound RNA; RNA; motif only): 9.42 µM

B6 (SPOP W131L)
binding (itself; negative-stain TEM): binds

B7 (halB 36-127)
binding (itself; negative-stain TEM): binds

human cathepsin D
log2 fold change (PP6C (human); co-immunoprecipitation, IP-MS; CYB5R4 knockout cells; concentration not given; relative to: CYB5R4 knockout over parental): 0.62

B8 (ph-p SAM 1397-1577 D16K/D17R)
binding (itself; AUC): binds

B9 (TAF15 7-99 del82-96)
binding (itself; ThT fluorescence, negative-stain TEM; peptide): binds

STDKTKREEVD (AMELX residues 164-174 S11D (Homo sapiens))
binding (itself; dynamic light scattering; peptide): binds

B10 (CRYAB)
binding (itself; SEC): binds

GAUUCUUUC (ssRNA)
Kd (U2AF2; sequencing of bound RNA; RNA; motif only): 5.1 µM

B11 (cooS 1-639)
binding (itself; crystal structure): binds

B12 (human alpha-actinin-3)
log2 fold change (PP6C (human); co-immunoprecipitation, IP-MS; CYB5R4 knockout cells; concentration not given; relative to: CYB5R4 knockout over parental): -0.32

For quick reference, copied from above:
KBTBD2 S252D (Homo sapiens) (sequence not shown)
binding (itself; cryo-EM): binds

B7 (halB 36-127)
binding (itself; negative-stain TEM): binds
